Measurements collected from several papers.
Compare with care: the assays were run in different laboratories. ± marks the error that the study gave.
BACE2: Beta-secretase 2 (BACE2, Homo sapiens, UniProt Q9Y5Z0)
UniProt Q9Y5Z0, sequence (whole entry, looked up): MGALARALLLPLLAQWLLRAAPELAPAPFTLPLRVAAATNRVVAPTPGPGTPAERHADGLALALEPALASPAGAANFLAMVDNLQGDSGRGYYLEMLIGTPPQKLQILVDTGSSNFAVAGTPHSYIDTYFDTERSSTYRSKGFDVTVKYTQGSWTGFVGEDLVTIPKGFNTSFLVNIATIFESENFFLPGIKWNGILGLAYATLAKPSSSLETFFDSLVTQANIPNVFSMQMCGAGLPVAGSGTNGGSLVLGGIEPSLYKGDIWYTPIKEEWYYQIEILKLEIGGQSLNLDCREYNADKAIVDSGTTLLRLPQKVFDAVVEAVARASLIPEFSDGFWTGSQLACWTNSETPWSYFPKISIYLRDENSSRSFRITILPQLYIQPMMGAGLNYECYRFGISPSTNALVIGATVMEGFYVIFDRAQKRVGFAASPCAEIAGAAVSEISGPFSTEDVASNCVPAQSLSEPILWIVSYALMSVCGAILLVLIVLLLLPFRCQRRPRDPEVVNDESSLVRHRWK
MAPK8: Mitogen-activated protein kinase 8 (MAPK8, Homo sapiens, UniProt P45983)
UniProt P45983, sequence (whole entry, looked up): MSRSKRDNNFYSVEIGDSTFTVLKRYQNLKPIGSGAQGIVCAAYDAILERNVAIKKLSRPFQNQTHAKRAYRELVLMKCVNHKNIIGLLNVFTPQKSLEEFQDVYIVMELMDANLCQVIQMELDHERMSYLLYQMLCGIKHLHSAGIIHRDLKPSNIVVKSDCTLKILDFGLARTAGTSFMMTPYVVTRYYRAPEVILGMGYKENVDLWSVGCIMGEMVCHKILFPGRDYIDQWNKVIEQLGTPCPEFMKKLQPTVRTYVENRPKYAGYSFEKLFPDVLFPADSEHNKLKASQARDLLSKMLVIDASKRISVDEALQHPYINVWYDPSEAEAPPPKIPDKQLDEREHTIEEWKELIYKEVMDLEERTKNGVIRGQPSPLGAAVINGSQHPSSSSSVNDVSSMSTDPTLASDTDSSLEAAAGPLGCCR
FUT9: 4-galactosyl-N-acetylglucosaminide 3-alpha-L-fucosyltransferase 9 (FUT9, Homo sapiens, UniProt Q9Y231)
UniProt Q9Y231, sequence (whole entry, looked up): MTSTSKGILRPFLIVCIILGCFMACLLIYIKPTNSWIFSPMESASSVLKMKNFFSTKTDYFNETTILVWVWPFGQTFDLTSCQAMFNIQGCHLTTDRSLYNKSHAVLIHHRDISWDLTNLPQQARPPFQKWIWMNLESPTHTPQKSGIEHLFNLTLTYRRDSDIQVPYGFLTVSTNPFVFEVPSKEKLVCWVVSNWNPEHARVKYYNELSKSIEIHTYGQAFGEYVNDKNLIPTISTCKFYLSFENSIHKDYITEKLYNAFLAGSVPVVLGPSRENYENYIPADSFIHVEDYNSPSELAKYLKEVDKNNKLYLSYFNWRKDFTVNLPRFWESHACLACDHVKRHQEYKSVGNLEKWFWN
FAP: Prolyl endopeptidase FAP (FAP, Homo sapiens, UniProt Q12884)
UniProt Q12884, sequence (whole entry, looked up): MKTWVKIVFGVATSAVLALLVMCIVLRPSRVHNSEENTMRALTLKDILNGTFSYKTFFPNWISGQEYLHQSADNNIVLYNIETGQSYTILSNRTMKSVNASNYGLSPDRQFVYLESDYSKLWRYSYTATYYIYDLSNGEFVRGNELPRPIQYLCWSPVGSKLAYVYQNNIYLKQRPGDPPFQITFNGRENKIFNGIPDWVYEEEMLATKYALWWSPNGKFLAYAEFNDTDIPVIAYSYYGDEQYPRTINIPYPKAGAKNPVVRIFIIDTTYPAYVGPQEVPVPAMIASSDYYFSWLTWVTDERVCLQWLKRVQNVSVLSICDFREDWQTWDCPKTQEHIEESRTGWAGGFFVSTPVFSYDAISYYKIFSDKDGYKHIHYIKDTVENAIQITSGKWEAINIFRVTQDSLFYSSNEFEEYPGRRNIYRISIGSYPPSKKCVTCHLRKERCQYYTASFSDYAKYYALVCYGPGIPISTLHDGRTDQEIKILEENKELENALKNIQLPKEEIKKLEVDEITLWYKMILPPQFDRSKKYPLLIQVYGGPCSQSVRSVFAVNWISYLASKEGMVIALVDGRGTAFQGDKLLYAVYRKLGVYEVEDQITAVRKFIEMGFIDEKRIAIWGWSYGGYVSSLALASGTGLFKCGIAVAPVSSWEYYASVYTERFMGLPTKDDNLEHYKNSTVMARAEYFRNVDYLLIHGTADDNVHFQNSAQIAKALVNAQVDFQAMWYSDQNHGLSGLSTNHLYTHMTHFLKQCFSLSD
Htr1a: 5-hydroxytryptamine receptor 1A (Htr1a, Rattus norvegicus, UniProt P19327)
UniProt P19327, sequence (whole entry, looked up): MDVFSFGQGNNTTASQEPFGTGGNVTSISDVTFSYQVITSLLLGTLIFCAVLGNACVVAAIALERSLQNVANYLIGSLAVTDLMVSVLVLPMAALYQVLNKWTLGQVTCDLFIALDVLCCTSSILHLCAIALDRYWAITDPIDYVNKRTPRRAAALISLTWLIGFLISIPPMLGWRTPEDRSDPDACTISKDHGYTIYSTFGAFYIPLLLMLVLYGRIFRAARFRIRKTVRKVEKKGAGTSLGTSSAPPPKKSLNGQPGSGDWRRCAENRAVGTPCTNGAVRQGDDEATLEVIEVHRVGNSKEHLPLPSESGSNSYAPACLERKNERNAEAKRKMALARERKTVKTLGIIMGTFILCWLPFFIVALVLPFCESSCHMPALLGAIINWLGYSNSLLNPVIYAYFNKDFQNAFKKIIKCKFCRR
Hypoxanthine-guanine-xanthine phosphoribosyltransferase: Hypoxanthine-guanine-xanthine phosphoribosyltransferase (Plasmodium falciparum, UniProt P20035)
UniProt P20035, sequence (whole entry, looked up): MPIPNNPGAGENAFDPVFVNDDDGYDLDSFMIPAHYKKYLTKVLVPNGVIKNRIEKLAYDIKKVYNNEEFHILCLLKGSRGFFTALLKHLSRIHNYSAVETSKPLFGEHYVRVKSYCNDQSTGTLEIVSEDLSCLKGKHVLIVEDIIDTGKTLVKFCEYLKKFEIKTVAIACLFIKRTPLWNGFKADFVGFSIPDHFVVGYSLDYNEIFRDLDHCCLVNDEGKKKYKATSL
5-hydroxytryptamine receptor 2A: 5-hydroxytryptamine receptor 2A (Rattus norvegicus, UniProt P14842)
UniProt P14842, sequence (whole entry, looked up): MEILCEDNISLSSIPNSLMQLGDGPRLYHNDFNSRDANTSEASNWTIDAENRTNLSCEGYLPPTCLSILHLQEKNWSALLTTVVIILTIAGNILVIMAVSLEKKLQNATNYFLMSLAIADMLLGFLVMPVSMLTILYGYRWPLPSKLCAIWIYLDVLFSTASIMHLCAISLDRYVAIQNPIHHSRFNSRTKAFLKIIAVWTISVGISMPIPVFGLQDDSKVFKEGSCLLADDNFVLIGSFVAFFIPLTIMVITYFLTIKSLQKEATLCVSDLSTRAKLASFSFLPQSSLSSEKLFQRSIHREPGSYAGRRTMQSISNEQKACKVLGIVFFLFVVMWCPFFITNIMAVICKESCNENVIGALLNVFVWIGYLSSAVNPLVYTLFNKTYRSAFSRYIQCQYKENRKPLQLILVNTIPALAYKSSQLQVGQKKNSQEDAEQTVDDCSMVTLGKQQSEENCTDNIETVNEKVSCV
CHRM4: Muscarinic acetylcholine receptor M4 (CHRM4, Homo sapiens, UniProt P08173)
UniProt P08173, sequence (whole entry, looked up): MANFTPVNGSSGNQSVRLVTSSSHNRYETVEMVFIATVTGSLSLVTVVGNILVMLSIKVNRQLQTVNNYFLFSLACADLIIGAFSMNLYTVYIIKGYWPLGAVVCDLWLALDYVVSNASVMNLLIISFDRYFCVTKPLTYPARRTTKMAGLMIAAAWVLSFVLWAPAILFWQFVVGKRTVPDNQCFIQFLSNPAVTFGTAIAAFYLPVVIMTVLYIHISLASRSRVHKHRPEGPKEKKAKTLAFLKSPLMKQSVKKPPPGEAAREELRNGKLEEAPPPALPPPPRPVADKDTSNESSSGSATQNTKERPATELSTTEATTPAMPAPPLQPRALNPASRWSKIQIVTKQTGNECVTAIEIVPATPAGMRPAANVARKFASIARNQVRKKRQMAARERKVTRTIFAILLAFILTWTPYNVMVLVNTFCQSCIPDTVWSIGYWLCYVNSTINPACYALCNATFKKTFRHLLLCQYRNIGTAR
Beta-lactamase CTX-M-14: Beta-lactamase CTX-M-14 (Escherichia coli, UniProt Q9L5C7)
CASP1: Caspase-1 (CASP1, Homo sapiens, UniProt P29466)
UniProt P29466, sequence (whole entry, looked up): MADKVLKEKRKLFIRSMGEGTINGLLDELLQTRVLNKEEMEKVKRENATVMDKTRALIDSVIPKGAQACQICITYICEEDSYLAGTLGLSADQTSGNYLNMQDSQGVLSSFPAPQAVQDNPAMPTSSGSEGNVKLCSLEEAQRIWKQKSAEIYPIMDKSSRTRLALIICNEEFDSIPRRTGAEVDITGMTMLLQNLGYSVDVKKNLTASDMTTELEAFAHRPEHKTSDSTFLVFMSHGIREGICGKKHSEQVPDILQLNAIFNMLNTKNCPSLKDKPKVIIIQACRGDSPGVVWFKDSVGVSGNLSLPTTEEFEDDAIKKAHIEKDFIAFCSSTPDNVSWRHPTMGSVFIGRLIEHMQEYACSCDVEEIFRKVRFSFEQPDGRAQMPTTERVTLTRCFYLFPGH
TACR1: Substance-P receptor (TACR1, Homo sapiens, UniProt P25103)
UniProt P25103, sequence (whole entry, looked up): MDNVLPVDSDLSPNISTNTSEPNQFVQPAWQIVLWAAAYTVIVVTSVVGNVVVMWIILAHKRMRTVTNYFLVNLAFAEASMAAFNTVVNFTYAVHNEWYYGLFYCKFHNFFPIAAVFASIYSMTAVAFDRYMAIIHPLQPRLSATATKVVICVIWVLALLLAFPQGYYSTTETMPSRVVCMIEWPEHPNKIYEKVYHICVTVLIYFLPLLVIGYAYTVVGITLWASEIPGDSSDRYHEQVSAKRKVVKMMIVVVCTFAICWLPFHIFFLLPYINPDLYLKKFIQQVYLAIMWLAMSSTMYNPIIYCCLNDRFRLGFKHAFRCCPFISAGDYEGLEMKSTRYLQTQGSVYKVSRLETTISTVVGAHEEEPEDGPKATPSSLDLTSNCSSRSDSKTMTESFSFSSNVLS
UniProt P51993, sequence (whole entry, looked up): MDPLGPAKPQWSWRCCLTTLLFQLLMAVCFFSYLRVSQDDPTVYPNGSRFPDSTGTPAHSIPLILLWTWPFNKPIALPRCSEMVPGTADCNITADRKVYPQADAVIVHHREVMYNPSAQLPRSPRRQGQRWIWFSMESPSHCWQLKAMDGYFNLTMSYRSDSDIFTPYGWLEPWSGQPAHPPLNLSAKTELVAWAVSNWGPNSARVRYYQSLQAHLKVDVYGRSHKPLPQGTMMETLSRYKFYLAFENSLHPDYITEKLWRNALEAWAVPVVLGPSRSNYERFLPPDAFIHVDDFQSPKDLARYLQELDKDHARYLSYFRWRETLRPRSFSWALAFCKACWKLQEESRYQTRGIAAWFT

Compound | target | assay | setting | Ki [nM]
CCC[C@H](O)[C@H](NC[C@@H](O)[C@H](Cc1ccccc1)NC(=O)c1cccc(C(=O)N(C)[C@H](C)c2ccccc2)c1)C(=O)NCC(C)C | BACE2 |  |  | 0.031 ± 0.021
CCOC(=O)C1(C)C=C(C(=O)OC)C(=O)CC1 (stereo not drawn) | MAPK8 | ligand displacement, FP |  | > 200000
Nc1nc2c(ncn2[C@@H]2O[C@H](COP(=O)(O)OP(=O)(O)O[C@H]3O[C@@H](CNC(=O)CCc4ccccc4)[C@@H](O)[C@@H](O)[C@@H]3F)[C@@H](O)[C@H]2O)c(=O)[nH]1 | FUT9 | enzyme activity, inhibitor |  | 7800
N=C(N)NCCC[C@H](NC(=O)[C@@H](N)Cc1ccccc1)C(=O)NCCOCCOCC(=O)NCC(=O)N1CC[C@H](F)C1 | FAP | enzyme activity, inhibitor, fluorescence | pH 7.5 | 55300
COCCOc1cc2ncnc(Nc3cccc(-c4cn(Cc5ccc(S(N)(=O)=O)cc5)nn4)c3)c2cc1OCCOC | CA12 (Homo sapiens, UniProt O43570) | enzyme activity, inhibitor, stopped-flow |  | 6
Nc1nc2c(ncn2[C@@H]2O[C@H](COP(=O)(O)OP(=O)(O)O[C@H]3O[C@@H](CNC(=O)C(c4ccccc4)C4CCCCC4)[C@@H](O)[C@@H](O)[C@@H]3F)[C@@H](O)[C@H]2O)c(=O)[nH]1 (stereo partly drawn) | FUT9 | enzyme activity, inhibitor |  | 5400
Clc1cc(CN2CCCC2)ccc1OCCCN1CCN(c2cccc3sccc23)CC1 | Htr1a | cell-free assay, radioligand |  | 157
O=c1[nH]cnc2c(CNCCCP(=O)(O)O)c[nH]c12 | Hypoxanthine-guanine-xanthine phosphoribosyltransferase | enzyme activity, inhibitor | pH 7.4 | 61
COc1cccc(CNC[C@@H](O)[C@H](Cc2ccccc2)NC(=O)c2cc(C(=O)N[C@H](C)c3ccccc3)cc(N(C)S(C)(=O)=O)c2)c1 | BACE2 |  |  | 137
COc1ccc2nc3cc(Cl)ccc3c(NCCCCc3c(N)nc(N)nc3N)c2c1 | Muscleblind-like protein 1, with cTNT RNA (Homo sapiens, UniProt Q9NR56) | MBNL1-RNA binding, gel mobility shift | no tRNA, together with: cTNT RNA, 15 nM MBNL1 | 6700 ± 1600
Clc1cc(OCCCN2CCN(c3cccc4sccc34)CC2)ccc1CN1CCCCC1 | 5-hydroxytryptamine receptor 2A | cell-free assay |  | 177
O=P(O)(O)CC[C@@H](CO)NCc1c[nH]c2c(O)nc(O)nc12 | Hypoxanthine-guanine-xanthine phosphoribosyltransferase | enzyme activity, inhibitor | pH 7.4 | 8000
CNc1ccccc1C(=O)O[C@H]1[C@@H](O)[C@H](n2ccc(=O)[nH]c2=O)O[C@@H]1COP(=O)(O)OP(=O)(O)O | Adcy2/ADCY5, C1/C2 domains (Rattus norvegicus, UniProt P26769+P30803) | adenylyl cyclase activity, inhibitor, purified enzyme | together with: 10 mM MnCl2, 100 µM forskolin, no Gsα-GTPγS | 4700 ± 1200
O=C1Nc2ccccc2N(C(=O)CN2CCC(CCCCN3CCN(CCCCOC(=O)C4c5ccccc5Oc5ccccc54)CC3)CC2)c2ccccc21 | CHRM4 | ligand displacement, radioligand |  | 30.2
CCCCCCOc1ccc(C(=O)OCCN2CC=CCC2)cc1 | CHRM4 | ligand displacement, radioligand | cell membranes | 9120
COC(=O)[C@@]1(C)C=C(C(=O)OC(C)(C)C)C(=O)CC1 | MAPK8 | ligand displacement, FP |  | 23600
O=C(Nc1cccc(-c2nn[nH]n2)c1)c1cc(-c2cc[nH]c2)cc(C(F)(F)F)c1 | Beta-lactamase CTX-M-14 | enzyme activity, inhibitor, absorbance | pH 7 | 10600
NC(CC(=O)c1cccc(O)c1)C(=O)O (stereo not drawn) | Kynureninase (kynU, Pseudomonas fluorescens, UniProt P83788) | inhibitor, Dixon plot |  | 100
COc1cc(CN2CCCC2)ccc1OCCN1CCN(c2cccc3sccc23)CC1 | 5-hydroxytryptamine receptor 2A | cell-free assay |  | 157
N=C(N)NCCCc1c[nH]cn1 | HRH2 (Homo sapiens, UniProt P25021) | ligand displacement, radioligand | cell membranes | 4070

Compound | target | assay | setting | Ki [nM]
O=C(Nc1cccc(-c2nn[nH]n2)c1)c1cc(-c2nn[nH]n2)cc(C(F)(F)F)c1 | Beta-lactamase CTX-M-14 | enzyme activity, inhibitor, absorbance | pH 7 | 82000
CC(=O)N[C@@H](CCC(N)=O)C(=O)N[C@@H](CC(=O)O)C(=O)N[C@H](C(=O)N[C@@H](CCCNC(=N)N)C(=O)N[C@H](C=O)CC(=O)O)[C@@H](C)O | CASP1 | enzyme activity, inhibitor, fluorescence | pH 7 | 3090
Cc1cc(CN2CCCC2)ccc1OCCCN1CCN(c2cccc3sccc23)CC1 | 5-hydroxytryptamine receptor 2A | cell-free assay |  | 206
Cc1ccccc1-c1cc(N2CCN(C(=O)[C@@H](N)CCCNC(=N)N)CC2)ccc1N(C)C(=O)C(C)(C)c1cc(C(F)(F)F)cc(C(F)(F)F)c1 | TACR1 | binding |  | 3.63
CC1=N[C@@H]2[C@@H](O)[C@H](O)[C@@H](COS(=O)(=O)O)O[C@@H]2S1 | protein SP_0475 (Streptococcus pneumoniae, UniProt A0A0H2UNN2) | inhibitor |  | 69 ± 7
CN1CCN(Cc2ccc(OCCCN3CCN(c4cccc5sccc45)CC3)cc2)CC1 | 5-hydroxytryptamine receptor 2A | cell-free assay |  | 120
Cc1ccccc1-c1cc(N2CCCCC2)ccc1N(C)C(=O)C(C)(C)c1cc(C(F)(F)F)cc(C(F)(F)F)c1 | TACR1 | cell-free assay | pH 6 | 36
Nc1nc2c(ncn2[C@@H]2O[C@H](COP(=O)(O)OP(=O)(O)O[C@H]3O[C@@H](CNC(=O)Cc4ccccc4)[C@@H](O)[C@@H](O)[C@@H]3F)[C@@H](O)[C@H]2O)c(=O)[nH]1 | FUT6 (Homo sapiens, UniProt P51993) | enzyme activity, inhibitor |  | 4300
C[C@H](CCC(=O)NCC(=O)O)[C@H]1CC[C@H]2[C@@H]3[C@H](OC(=O)c4cccnc4)C[C@H]4C[C@H](O)CC[C@]4(C)[C@H]3CC[C@]12C | SLC10A1 (Homo sapiens, UniProt Q14973) | transporter uptake, inhibitor, radiometric |  | 9290
O=C1Nc2ccccc2N(C(=O)CN2CCC(CCCCN3CCN(CCOC(=O)C4c5ccccc5Oc5ccccc54)CC3)CC2)c2ccccc21 | CHRM4 | ligand displacement, radioligand |  | 10.2
COC(=O)C1(C)C=C(C(=O)OCc2ccccc2)C(=O)CC1 (stereo not drawn) | MAPK8 | ligand displacement, FP |  | 4000
CCC(=O)NCc1cc(C(=O)NCCN2CCC(OC(=O)C(c3ccccc3)c3ccccc3)CC2)cc(C(=O)NCCN2CCN(CCCCC3CCN(CC(=O)N4c5ccccc5NC(=O)c5ccccc54)CC3)CC2)c1 | CHRM4 | ligand displacement, radioligand |  | 3.16
CC(=O)N[C@@H](Cc1ccccc1)C(=O)N[C@@H](CC(=O)O)C(=O)N[C@H](C(=O)N1CCC[C@H]1C(=O)N[C@H](C=O)CC(=O)O)C(C)C | CASP1 | enzyme activity, inhibitor, fluorescence | pH 7 | 45.7
N#C[C@@H]1CCCN1C(=O)CNC(=O)c1ccnc2ccc(/C=C/C(=O)NCc3cn(CCOCCOCCOCCNC(=O)CCCC[C@@H]4SC[C@@H]5NC(=O)N[C@@H]54)nn3)cc12 | FAP | enzyme activity, inhibitor, fluorescence | with preincubation | 3.8
COc1cc(/C=C/c2cc(O)cc(O)c2)ccc1O | XDH (Bos taurus, UniProt P80457) | uric acid formation, inhibitor | pH 10.0, 25 °C, together with: xanthine | 96000 ± 2000
CC(C)Oc1cccc(NC(=O)CCCN2C(=O)c3ccccc3C2=O)c1 | Indole-3-acetic acid-amido synthetase GH3.17 (GH3.17, Arabidopsis thaliana, UniProt Q9FZ87) | IAA-Glu formation, inhibitor | together with: IAA substrate | 0.34
COc1cc(CN2CCOCC2)ccc1OCCCN1CCN(c2cccc3sccc23)CC1 | Htr1a | cell-free assay, radioligand |  | 128
O=C(Nc1cccc(-c2nn[nH]n2)c1)c1cc(-c2ccsc2)cc(C(F)(F)F)c1 | Beta-lactamase CTX-M-14 | enzyme activity, inhibitor, absorbance | pH 7 | 31100
Cc1cccc(-c2ccc([C@@H]3[C@@H](CO)N4CCCCN(S(=O)(=O)c5nccn5C)C[C@@H]34)cc2)c1C | IDE (Homo sapiens, UniProt P14735) |  |  | 1.7

Excerpt of the above:
Compound | target | assay | setting | Ki [nM]
COc1cc(CN2CCCC2)ccc1OCCN1CCN(c2cccc3sccc23)CC1 | 5-hydroxytryptamine receptor 2A | cell-free assay |  | 157
Clc1cc(OCCCN2CCN(c3cccc4sccc34)CC2)ccc1CN1CCCCC1 | 5-hydroxytryptamine receptor 2A | cell-free assay |  | 177
O=C(Nc1cccc(-c2nn[nH]n2)c1)c1cc(-c2cc[nH]c2)cc(C(F)(F)F)c1 | Beta-lactamase CTX-M-14 | enzyme activity, inhibitor, absorbance | pH 7 | 10600
CCOC(=O)C1(C)C=C(C(=O)OC)C(=O)CC1 (stereo not drawn) | MAPK8 | ligand displacement, FP |  | > 200000
O=c1[nH]cnc2c(CNCCCP(=O)(O)O)c[nH]c12 | Hypoxanthine-guanine-xanthine phosphoribosyltransferase | enzyme activity, inhibitor | pH 7.4 | 61
C[C@H](CCC(=O)NCC(=O)O)[C@H]1CC[C@H]2[C@@H]3[C@H](OC(=O)c4cccnc4)C[C@H]4C[C@H](O)CC[C@]4(C)[C@H]3CC[C@]12C | SLC10A1 (Homo sapiens, UniProt Q14973) | transporter uptake, inhibitor, radiometric |  | 9290
